Experimental data gathered from unrelated publications.
Protocols differ between the studies behind these lines. ± marks the error that the study gave.

SMILES	cell line	assay	test system	setting	IC50
CC1=CC[C@]2(C(=O)O[C@H]3OC[C@@H](O)[C@@H](O)[C@@H]3OS(=O)(=O)O)CC[C@]3(C)C(CCC4[C@@]5(C)CC[C@H](O)C(C)(C)C5CC[C@]43C)C2[C@H]1C (stereo partly shown)	WISH	cell growth or viability, MTT			46.8 µM
CC(=O)O[C@@H]1C[C@H]2C(C)(C)[C@H](O)CC[C@]2(C)[C@H]2CC[C@]34C[C@]3(CC[C@H]4[C@@H](C)C[C@@H](O)[C@H](O)C(C)(C)O)[C@@]21C	fibroblasts	cytotoxicity, MTT			> 30 µM
Cc1cc(C)c(-n2c3c([n+](-c4c(C)cc(C)cc4C)[c]2[Au-][Cl])-c2cccc4cccc-3c24)c(C)c1	3D spheroids	cell growth			> 50 µM
CCCCc1ccc(C(=O)O[C@@H]2CC(=O)O[C@H](C)C/C=C/C=C/[C@H](O[C@H]3CC[C@H](N(C)C)[C@@H](C)O3)[C@H](C)C[C@H](CC=O)[C@H](O[C@@H]3O[C@H](C)[C@@H](O[C@H]4C[C@@](C)(O)[C@@H](O)[C@H](C)O4)[C@H](N(C)C)[C@H]3O)[C@H]2OC)cc1	HGC-27	cell growth or viability, CCK-8		72 h	0.92 µM
COc1cc2c(cc1C(C)=O)C(=O)CC1C(C)(C)c3nc(C)ncc3C[C@]21C (mixture of isomers)	TM3	cell growth or viability, SRB		24 h	> 100 µM
Cc1cc(CN2CCN(c3c(Br)cnc4[nH]c(-c5ccc(N6CCN(C)CC6)cc5)nc34)CC2)no1	MOLM-13 resistant cells			72 h	0.08 µM
CCCCCCCCC=CCCCCCCCC(=O)OCC1OC(n2ccc(N)nc2=O)C(F)(F)C1O (stereo not shown)	LOX	cell growth		together with: dipyridamole 4 µg/mL	0.025 ± 0.001 µM
CCC(CC)CNC(=N)NC(=N)NCCCCCCNC(=N)NC(=N)NCC(CC)CC	NCI-H1299	cell growth or viability, SRB		72 h	0.6 µM
C#CCOc1ccc(/C=N\NC(=O)c2ccncc2)cc1	normal dermal fibroblasts	cell viability, MTT		48 h	> 500 µM
CC(=O)O[C@@H]1[C@H](OC(C)=O)[C@@H](C)O[C@H]1n1cc(F)c(NC(=O)/C=C/c2ccc(O)c(O)c2)nc1=O	AsPC-1	cell viability, MTT		72 h	133 ± 5.67 µM
C=CCc1ccc(O)c(-c2cc(CC=C)ccc2OCCCCCCCCCC[P+](c2ccccc2)(c2ccccc2)c2ccccc2)c1	G-361	cell growth or viability, imaging			0.22 µM
O=C(N/N=C/c1ccccn1)c1cc(-c2ccc(Cl)cc2)nc2ccccc12	LDR	cell viability, MTS		4 days	> 50 µM
Cn1cc(-c2cc(N3CCCS3(=O)=O)ccc2N[C@H]2CC[C@H](C)CC2)c2cc[nH]c2c1=O	Light II cells	GLI reporter gene, inhibitor		Hedgehog pathway	0.00012 ± 0.0001 µM
COc1nc(Nc2nc(O)c3ccccc3n2)nc2ccc(C)cc12	HCC4017	cell growth or viability, MTS		96 h	16 µM
COc1cc(NC(=O)c2cccc(F)c2)ccc1C(=O)Nc1ccc(Cl)c(-c2nc3ccccc3[nH]2)c1	NIH3T3-Gli-Luc	Hedgehog signalling, Gli-luciferase reporter		together with: Shh-conditioned medium	0.79 ± 0.14 µM
Cc1ccc(CC(=O)N(CCCn2ccnc2)c2nc3ccccc3s2)c(C)c1	SW620 organoids	vimentin reporter GFP			> 40 µM
CN(C)c1cc[n+](CCCCC[n+]2ccc(N(C)C)cc2)cc1	3T3-L1	cell viability, MTT		72 h	> 100 µM
COc1cc(NC(=O)c2ccc(Cl)nc2)ccc1C(=O)Nc1ccc(Cl)c(-c2nc3ccccc3[nH]2)c1	NIH3T3-Gli-Luc	Hedgehog signalling, Gli-luciferase reporter		together with: Shh-conditioned medium	0.86 ± 0.09 µM
COCC/N=C(\S)N/N=C(\C)c1ccccc1O	HCC4017	cell growth or viability, MTS		96 h	> 50 µM
N=C(N/N=C/c1ccc[nH]1)N/N=C/c1ccc[nH]1	IMR-90	cell growth or viability, crystal violet		72 h	21.6 µM
C[O][Pt-2]([NH3+])([NH3+])([OH])([Cl])[Cl]	CH1	cell growth or viability, MTT		96 h	0.61 µM
CC(C)c1cccc(C(C)C)c1N1CCN(c2c(C(C)C)cccc2C(C)C)C1=[Se].[Cl][Au]	A-431	cell growth or viability, MTT		72 h	4.6 µM
CCc1n(CC(=O)O[C@@H]2C[C@H](C)CC[C@H]2C(C)C)c2ccccc2[n+]1C	primary human glioblastoma cultures	cell viability			~1 µM
CC(C)N(C[C@H]1O[C@@H](n2cnc3c(N)ncnc32)[C@H](O)[C@@H]1O)C1CC2CN(Cc3ccc(OC(F)(F)F)cc3)CC2C1 (stereo partly shown)	H460 R231Q	cell proliferation, CCK-8		72 h	73.5 ± 6.32 µM
COC(=O)CCC(=O)[O][Pt-2]1([Cl])([Cl])([O]C)[NH2+]CC[N+]1(C)C	CH1	cell growth or viability, MTT		96 h	1.5 µM
CCN(CC)CCO/N=C1/C=C2CCC3C(CC[C@]4(C)/C(=C/c5ccccn5)CCC34)[C@@]2(C)CC1 (stereo partly shown)	G-361	cell growth or viability, resazurin		72 h	3.8 µM
COc1c(C)c(OC(=O)c2ccccc2)c(C)c(OC(=O)c2ccccc2)c1C(=O)/C=C/c1ccccc1	KKU-M213	cell growth or viability, SRB		72 h	31.6 µM
CC(=O)c1cnc(N)nc1N1CC[C@H]1c1nn2ccc(Cl)c2c(=O)n1-c1ccccc1	B cells	refers to: CD69	human whole blood	together with: anti-IgM	0.063 µM

SMILES	cell line	assay	test system	setting	IC50
O=C1Nc2ccccc2C1=NN=Cc1ccc(F)cc1	MCF7 and MDA-MB-231	cytotoxicity, MTT		24 and 48 h	~10 µg/mL
CC(=O)Oc1ccccc1C(=O)[O][Pt]([NH2])([NH2])([Cl])([Cl])[O]C(=O)CCCc1ccccc1	PSN1 3D spheroids				7.75 ± 0.01 µM
CO[C@@H]1[C@@H](O[C@@H]2O[C@H](C)[C@@H](O[C@H]3C[C@@](C)(O)[C@@H](OC(=O)Cc4ccc(C(C)(C)C)cc4)[C@H](C)O3)[C@H](N(C)C)[C@H]2O)[C@@H](CC=O)C[C@@H](C)[C@@H](O[C@H]2CC[C@H](N(C)C)[C@@H](C)O2)/C=C/C=C/C[C@@H](C)OC(=O)C[C@H]1O	HGC-27	cell growth or viability, CCK-8		72 h	0.49 µM
CCN1/C(=C/C=C2\CCCC(/C=C/C3=[N+](CC)c4ccccc4C3(C)C)=C2NCCCCCCCCN2CCC(Nc3nc4ccccc4n3Cc3ccc(F)cc3)CC2)C(C)(C)c2ccccc21	U-87 MG	cell growth or viability, CCK-8		72 h	~1 µM
Fc1ccc(-c2cn(CSc3ccccc3)nn2)c(F)c1	SJSA-1	cell growth or viability, MTS		72 h	> 100 µM
O=C(O[C@@H]1Cc2c(O)cc(O)cc2O[C@@H]1c1cc(O)c(O)c(O)c1)c1cc(O)c(O)c(O)c1	A-431	cell growth or viability, CCK-8		24 h	53.8 µM
CN(C)CCN1CCN(c2ccc(Oc3ccc(F)cc3F)c(-c3cn(C)c(=O)c4[nH]ccc34)c2)S1(=O)=O	Light II cells	GLI reporter gene, inhibitor		Hedgehog pathway	0.0719 ± 0.00543 µM
N=C(N/N=C/c1ccc(Cl)cc1)N/N=C/c1ccc(Cl)cc1	IMR-90	cell growth or viability, crystal violet		72 h	43.5 µM
COc1ccc2c(C)nc(Nc3nc(O)cc(-c4ccccc4)n3)nc2c1	LDR	cell viability, MTS		4 days	2.4 µM
Cc1c(C)n(-c2c(C(C)C)cccc2C(C)C)c(=[Se])n1-c1c(C(C)C)cccc1C(C)C.[Cl][Au]	A-431	cell growth or viability, MTT		72 h	0.3 µM
Cc1ccc(C(C)C)cc1.Oc1ccccc1C=NNC1=Nc2ccccc2-c2[nH]c3ccc(Br)cc3c2C1.[Cl-].[Cl][Ru+]	CH1	cell growth or viability, MTT		96 h	0.67 µM
C[O][Pt-2]1([Cl])([Cl])([O]C(=O)CCC(=O)OCCOC(=O)CCC(=O)[O][Pt-2]2([Cl])([Cl])([O]C)[NH2+]CC[N+]2(C)C)[NH2+]CC[N+]1(C)C	CH1	cell growth or viability, MTT		96 h	2.3 µM
CCCC(CCC)C(=O)[O][Pt]([NH2])([NH2])([Cl])([Cl])[O]C(=O)c1ccccc1OC(C)=O	PSN1 3D spheroids				0.79 ± 0.06 µM
N=C(N/N=C/c1cc2ccccc2[nH]1)N/N=C/c1cc2ccccc2[nH]1	IMR-90	cell growth or viability, crystal violet		72 h	5.9 µM
COC(=O)[C@H]1[C@H]2C[C@H]3O[C@@]4(CCN3C[C@H]2C[C@@H](OC(=O)c2cc(OC)c(OC)c(OC)c2)[C@@H]1OC)C(=O)Nc1cc(OC)c(Br)cc14	CAPAN-1	cell growth or viability, crystal violet		72 h	88.1 µM
CC(C)N(Cn1nc(-c2ccccc2)cc1-c1ccccc1)C(C)C	3T3-L1	cell growth or viability, MTT			114 µg/mL
COc1cccc(/C=N/Nc2nc(Nc3ccccc3)nc(-n3nc(C)cc3C)n2)c1O	HCC4017	cell growth or viability, MTS		96 h	6.6 µM
CO[C@@H]1[C@@H](O[C@@H]2O[C@H](C)[C@@H](O[C@H]3C[C@@](C)(O)[C@@H](OC(=O)/C=C/c4ccc(C(F)(F)F)cc4)[C@H](C)O3)[C@H](N(C)C)[C@H]2O)[C@@H](CC=O)C[C@@H](C)[C@@H](O[C@H]2CC[C@H](N(C)C)[C@@H](C)O2)/C=C/C=C/C[C@@H](C)OC(=O)C[C@H]1O	HGC-27	cell growth or viability, CCK-8		72 h	0.96 µM
Nc1ccc(C(=O)NN=Cc2ccc(OCC(=O)Nc3ccc(Cl)cc3)cc2)cc1	WISH	cell viability, MTT		24 h	25.9 ± 0.6 µg/mL
C1=[N+]2CCCC[N+]3=Cc4ccc5[n]4[Au-]23[n]2c1ccc2-c1nc2ccccc2nc1-5.F[P-](F)(F)(F)(F)F	SF-268	cell growth			1.4 µM
N=C(N)NCCC[C@H](N)C(=O)N[C@@H](CC(=O)N[C@@H](CC(=O)O)c1cccc2ccccc12)c1cccc2ccccc12	BT-474 (HER2-overexpressing)				> 50 µM
O=[N+]([O-])C(=C\Nc1ccccc1O)/C=N/c1ccccc1O	LDR	cell viability, MTS		4 days	44 µM
CCC(C(=O)O)C1CCC(C)C(C(C)C(O)C(C)C(=O)C(CC)C2OC3(C=CC(NCc4cn(CCCCSC(C)=O)nn4)C4(CCC(C)(C5CCC(O)(CC)C(C)O5)O4)O3)C(C)CC2C)O1 (stereo not shown)	HMLER CD24high/CD44low	cell viability, CellTiter-Blue		72 h	2.42 ± 0.2 µM
CCCCCCC[C@@H](CC(=O)O)OC(=O)C[C@@H](CCCCCCC)O[C@@H]1O[C@@H](C)[C@H](O)[C@@H](O)[C@H]1O	H1299	cytotoxicity, MTS		72 h	190 µM
CO[C@@H]1[C@@H](O[C@@H]2O[C@H](C)[C@@H](O[C@H]3C[C@@](C)(O)[C@@H](OC(=O)c4ccccc4)[C@H](C)O3)[C@H](N(C)C)[C@H]2O)[C@@H](CC=O)C[C@@H](C)[C@@H](O[C@H]2CC[C@H](N(C)C)[C@@H](C)O2)/C=C/C=C/C[C@@H](C)OC(=O)C[C@H]1O	HGC-27	cell growth or viability, CCK-8		72 h	5.31 µM
CCN(CC)CCCNC(=O)CSc1c2c(nc3cc(Cl)ccc13)CCCC2	HCC4017	cell growth or viability, MTS		96 h	> 50 µM
CC(=O)OC[C@H]1O[C@@H](NC(=O)NC(=O)/C=C/c2ccc(C(C)C)cc2)[C@H](OC(C)=O)[C@@H](OC(C)=O)[C@@H]1OC(C)=O	L1210, CEM and HeLa	cell growth		range over three cell lines	16 to 45 µM

For quick reference, copied from above:
SMILES	cell line	assay	test system	setting	IC50
C#CCOc1ccc(/C=N\NC(=O)c2ccncc2)cc1	normal dermal fibroblasts	cell viability, MTT		48 h	> 500 µM
CC(=O)O[C@@H]1[C@H](OC(C)=O)[C@@H](C)O[C@H]1n1cc(F)c(NC(=O)/C=C/c2ccc(O)c(O)c2)nc1=O	AsPC-1	cell viability, MTT		72 h	133 ± 5.67 µM
C=CCc1ccc(O)c(-c2cc(CC=C)ccc2OCCCCCCCCCC[P+](c2ccccc2)(c2ccccc2)c2ccccc2)c1	G-361	cell growth or viability, imaging			0.22 µM
O=C(N/N=C/c1ccccn1)c1cc(-c2ccc(Cl)cc2)nc2ccccc12	LDR	cell viability, MTS		4 days	> 50 µM
Cn1cc(-c2cc(N3CCCS3(=O)=O)ccc2N[C@H]2CC[C@H](C)CC2)c2cc[nH]c2c1=O	Light II cells	GLI reporter gene, inhibitor		Hedgehog pathway	0.00012 ± 0.0001 µM
COc1nc(Nc2nc(O)c3ccccc3n2)nc2ccc(C)cc12	HCC4017	cell growth or viability, MTS		96 h	16 µM
COc1cc(NC(=O)c2cccc(F)c2)ccc1C(=O)Nc1ccc(Cl)c(-c2nc3ccccc3[nH]2)c1	NIH3T3-Gli-Luc	Hedgehog signalling, Gli-luciferase reporter		together with: Shh-conditioned medium	0.79 ± 0.14 µM
